Assay results from different studies.
Each numbered part is a random draw from the data of one study; scales do not carry over between parts.
UniProt Q9H832, sequence (whole entry, looked up): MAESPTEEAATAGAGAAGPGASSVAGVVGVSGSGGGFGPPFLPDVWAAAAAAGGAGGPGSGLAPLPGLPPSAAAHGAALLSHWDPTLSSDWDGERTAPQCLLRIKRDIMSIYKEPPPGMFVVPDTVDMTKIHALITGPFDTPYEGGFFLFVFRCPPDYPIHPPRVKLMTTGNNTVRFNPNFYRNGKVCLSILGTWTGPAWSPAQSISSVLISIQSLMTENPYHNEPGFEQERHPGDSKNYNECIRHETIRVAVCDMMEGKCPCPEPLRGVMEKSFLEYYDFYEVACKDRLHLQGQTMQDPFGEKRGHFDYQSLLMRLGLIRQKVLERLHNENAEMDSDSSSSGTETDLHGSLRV
UniProt P63146, sequence (whole entry, looked up): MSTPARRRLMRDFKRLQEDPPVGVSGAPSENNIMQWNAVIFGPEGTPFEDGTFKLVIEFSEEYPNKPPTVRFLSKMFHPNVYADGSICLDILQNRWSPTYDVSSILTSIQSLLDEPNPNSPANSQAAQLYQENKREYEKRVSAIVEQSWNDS
UniProt Q9Y385, sequence (whole entry, looked up): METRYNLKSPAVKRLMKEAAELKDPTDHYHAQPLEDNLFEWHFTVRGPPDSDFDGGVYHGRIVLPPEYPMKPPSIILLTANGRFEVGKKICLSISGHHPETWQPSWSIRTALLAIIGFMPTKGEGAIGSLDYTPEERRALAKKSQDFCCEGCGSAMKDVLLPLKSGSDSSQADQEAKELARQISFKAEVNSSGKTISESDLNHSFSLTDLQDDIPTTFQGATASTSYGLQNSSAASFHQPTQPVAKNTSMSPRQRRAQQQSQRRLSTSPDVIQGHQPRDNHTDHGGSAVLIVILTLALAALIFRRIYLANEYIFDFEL
UniProt P61081, sequence (whole entry, looked up): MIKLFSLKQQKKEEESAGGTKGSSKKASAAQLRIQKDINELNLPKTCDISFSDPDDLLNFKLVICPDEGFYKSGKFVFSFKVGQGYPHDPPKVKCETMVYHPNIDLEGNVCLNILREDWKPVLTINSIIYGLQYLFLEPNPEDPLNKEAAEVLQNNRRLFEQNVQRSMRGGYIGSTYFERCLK
UniProt Q9NPD8, sequence (whole entry, looked up): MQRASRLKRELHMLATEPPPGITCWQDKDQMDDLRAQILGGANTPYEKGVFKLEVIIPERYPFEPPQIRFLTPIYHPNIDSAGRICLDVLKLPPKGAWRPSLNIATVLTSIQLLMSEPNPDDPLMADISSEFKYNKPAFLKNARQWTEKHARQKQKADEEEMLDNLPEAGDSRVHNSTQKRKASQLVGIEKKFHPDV
UniProt P68036, sequence (whole entry, looked up): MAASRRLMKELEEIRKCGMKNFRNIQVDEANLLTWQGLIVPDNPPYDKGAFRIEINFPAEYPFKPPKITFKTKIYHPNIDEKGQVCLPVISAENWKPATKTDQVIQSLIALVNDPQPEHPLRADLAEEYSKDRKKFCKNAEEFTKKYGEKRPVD
UniProt Q712K3, sequence (whole entry, looked up): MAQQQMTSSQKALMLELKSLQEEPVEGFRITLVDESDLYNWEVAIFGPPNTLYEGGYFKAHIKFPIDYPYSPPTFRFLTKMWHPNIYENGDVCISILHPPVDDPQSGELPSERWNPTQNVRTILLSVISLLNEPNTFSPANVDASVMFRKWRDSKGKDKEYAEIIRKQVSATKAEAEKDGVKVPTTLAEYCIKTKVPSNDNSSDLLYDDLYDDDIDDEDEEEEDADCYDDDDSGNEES
UniProt Q7Z7E8, sequence (whole entry, looked up): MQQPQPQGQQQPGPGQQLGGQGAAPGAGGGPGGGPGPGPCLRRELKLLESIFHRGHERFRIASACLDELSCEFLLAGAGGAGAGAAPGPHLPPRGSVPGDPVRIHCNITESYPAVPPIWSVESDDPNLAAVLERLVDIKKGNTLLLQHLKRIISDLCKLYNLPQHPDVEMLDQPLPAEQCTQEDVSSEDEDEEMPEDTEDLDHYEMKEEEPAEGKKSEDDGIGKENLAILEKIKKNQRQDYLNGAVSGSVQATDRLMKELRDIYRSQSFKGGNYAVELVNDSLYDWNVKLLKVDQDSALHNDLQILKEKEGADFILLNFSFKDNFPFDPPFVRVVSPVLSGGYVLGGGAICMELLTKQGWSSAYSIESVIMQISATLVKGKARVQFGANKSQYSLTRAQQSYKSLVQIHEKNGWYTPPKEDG
UniProt O00762, sequence (whole entry, looked up): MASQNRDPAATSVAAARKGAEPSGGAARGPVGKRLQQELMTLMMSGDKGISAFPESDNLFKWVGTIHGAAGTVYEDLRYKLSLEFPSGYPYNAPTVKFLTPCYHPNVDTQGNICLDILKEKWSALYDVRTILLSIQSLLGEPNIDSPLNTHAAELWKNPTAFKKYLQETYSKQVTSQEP

Set 1
Target: RNA binding protein fox-1 homolog 2, RRM domain, GST-SBP tag (RBFOX2, Homo sapiens, UniProt O43251-10, residues 100-194)
Technique: RNA Bind-n-Seq
Form: RNA
Sample: in vitro
Tested at: 365 nM
Setting: natural RNA segment, single round, ends assumed
Baseline: no-protein control
Reading: higher = stronger binding
Residues (chain): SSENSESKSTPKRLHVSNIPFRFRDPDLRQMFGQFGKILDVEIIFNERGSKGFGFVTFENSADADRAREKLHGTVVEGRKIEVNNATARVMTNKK
`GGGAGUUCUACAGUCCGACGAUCAAGAGGCUUUGGGAAUAGUUCAUAGGGAAGGGACAACAUGGAAGAAACAGCGAUUUAAAUUGUAUUGAACAGGGCAUAUAAAAUGCAUUCUGUACCCUGAUCUGGCAUAUUGGAAUUCUCGGGUGCCAA` — result for “RBNS enrichment (R)”: 1.65.
`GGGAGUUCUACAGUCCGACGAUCAAGCUUAAAUUUUAUAUUAUUUUAAAAUGUCUUGGUCUUCUACUGCCUUGAAAAAUGACAAUUGUGAACACGAUAGUUAACUGUACUACUUUUUAAGCUGUUGUUAUGCAUGGAAUUCUCGGGUGCCAA`: “RBNS enrichment (R)” 1.6.
`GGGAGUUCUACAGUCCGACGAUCUGAUGUUGACUAAGGGUUAUAGACAGACGCUCUUGACAGAGGUCACAGAUCGGAAUAUGAAGUUCUUUAUGGUUCCAUAGCCUAGGUGUUUCUUGGGGGCAUUUGGGAGGUGGAAUUCUCGGGUGCCAA`: “RBNS enrichment (R)” 2.64.
`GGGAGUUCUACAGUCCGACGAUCUGAAAAGGUGAAUACUCCAACUACCACAGUCUAUAGGUGUGGCCCUUUGAUAGAUCUCUGCCGGGGUCCUCAUGUUAGACACACGGGCAAAAUUAAGGCUUUAAAAAUACUGGAAUUCUCGGGUGCCAA`: “RBNS enrichment (R)” 0.428.
Under “RBNS enrichment (R)”, `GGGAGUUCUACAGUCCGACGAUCCUACCACUUCUUUGAGAACCUCUGCUUUACGGUUGACACUGAUGCUUAUCUUUCUCUGGAGUUACGGAUUUGCCUGUGGAUUUAAUGCUCACACCAUGCUAUUUAAUUUUUGGAAUUCUCGGGUGCCAA` is recorded as 1.89.
Under “RBNS enrichment (R)”, `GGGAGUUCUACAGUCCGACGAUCGUGUCCUCGAGGUUGAGCUUCACUCCACUGCGGCAGAGGCAGCGUGCACACUCGGAUUUGCUACGUUUCUAUAUAUCUUGAAGCUAAAUGUAUAUAUGAGUAGUUUGCCAUGGAAUUCUCGGGUGCCAA` is recorded as 0.54.
Under “RBNS enrichment (R)”, `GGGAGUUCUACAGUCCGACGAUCUCCCCUGGGAAGUGCUCUCAGCAGGCCUUGCGGAGCAGAGCAGAGCUGGGCAGAGCUGACUCCUGCCCCGCUGUCCCUGAUGGAACCUUCCUUCCAGAGCUGUGGAAGAGUGGAAUUCUCGGGUGCCAA` is recorded as 0.398.
`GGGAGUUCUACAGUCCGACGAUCGUGAGUCUCCUGGAACAGUGGAGAUGCCAGGAGAAAGAAAGACAGGUACUAGCUGAGGUUAUUUUAAAAGCAGCAGUGUGCCUACUUUUUGGAGUGUAACCGGGGAGGGAUGGAAUUCUCGGGUGCCAA`: “RBNS enrichment (R)” 1.06.
Under “RBNS enrichment (R)”, `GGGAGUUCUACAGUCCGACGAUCAAGUCAAGUAUUGGAAAGUAUAAAAGAAAAAUCAUUCUGACAAUUUCUAAGCCAGAAGCAAACAAGAAUUACUGAAAUCUACCCCAUGAAUACUUGGAAGGCAGUAAUUGUGGAAUUCUCGGGUGCCAA` is recorded as 0.311.
`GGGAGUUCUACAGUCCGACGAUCACCUGUUAGACAGUGGCAGAGAUAGGCCCAAGCUAAGUGGAGGCCAGGCCAGGCUGAGGGUGGGGCCCUCUGGGACCUAGUCCUCUAAGCUGUCUUUGUUAGAUACUGCUUGGAAUUCUCGGGUGCCAA` — result for “RBNS enrichment (R)”: 0.31.
Under “RBNS enrichment (R)”, `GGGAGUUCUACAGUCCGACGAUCGCAUUGGGGAUUUUUGUUCUCAGCUCCCAGGCCGCACUGAACACAGUGUUGCUGCCUUCAGUUUGGUUCUGGCCAUGAGGCCCCUAGUGGGAGCUUUGCCCUUAGGGCUGUGGAAUUCUCGGGUGCCAA` is recorded as 0.341.
For `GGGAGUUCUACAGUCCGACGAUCGGGCAGUACUGUCAGAAAUUUCUUUGAGCUGUGAGAUGGAUUUAUUUUUAAAUGCUACUUUGUAAAGGUGACCUUUAAAAAAUAAAAGGAAAAUAAAGAAUGUUAGUUUCUGGAAUUCUCGGGUGCCAA`, “RBNS enrichment (R)” read 2.

Set 2
Target: Fragile X messenger ribonucleoprotein 1, C-terminal low-complexity region (Fmr1, Mus musculus, UniProt P35922)
Technique: RNA Bind-n-Seq
Form: RNA
Sample: in vitro
Tested at: 200 nM
Setting: whole 134-nt RNA, ends assumed
With: 150 mM LiCl
Baseline: input library
Reading: higher = stronger binding
All molecules: 7-deaza-guanosine replaces G
For `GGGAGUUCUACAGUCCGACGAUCUAACUUUAGAGGAGGAUCUGAUGGAUAUGGCAGUGGACGUGGAUUUGGGGAUGGCUAUAAUGGGUAUGGAGGACGACCUGGAGGUGGCAAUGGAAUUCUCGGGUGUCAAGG`, the log2 enrichment was 0.0802.
With `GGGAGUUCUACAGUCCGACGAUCAGUCCUGUGCUACACAUCGUAUGUACCGAAUCAAAUUUAAAUUUUUUUAAACCCAAAAAAGUAUUAUGUUACGCCGUUCGGAUCUGCACUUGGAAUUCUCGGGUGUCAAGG` the log2 enrichment was -1.54.
`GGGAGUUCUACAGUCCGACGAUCGUCCUGUGCUACACAUCGUAUGUACCGAAUCGGAAAAAAGGGGAAAAAAGGAAAAAAGGAAAGUAUUAUGUUACGCCGUUCGGAUCUGCAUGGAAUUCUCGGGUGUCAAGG` has a log2 enrichment of 0.0986.
`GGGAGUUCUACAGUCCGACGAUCAAGUCCUGUGCUACACAUCGUAUGUACCGAAUCGGGAAAGGGAAAGGGUUUUUGGGAAAGUAUUAUGUUACGCCGUUCGGAUCUGCACUUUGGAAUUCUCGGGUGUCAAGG` has a log2 enrichment of -1.84.
The log2 enrichment of `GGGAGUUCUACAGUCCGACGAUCCCUGUGCUACACAUCGUAUGUACCGAAUCGGGUUUUUUUGGGUUUUUUUGGUUUUUUUGGGAAAGUAUUAUGUUACGCCGUUCGGAUCUGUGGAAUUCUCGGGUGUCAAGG` is reported as -0.368.
`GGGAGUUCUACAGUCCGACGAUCCAAGUCCUGUGCUACACAUCGUAUGUACCGAAUCGGAGGAAAAAGGUUUUUUUGGAAAGUAUUAUGUUACGCCGUUCGGAUCUGCACUUCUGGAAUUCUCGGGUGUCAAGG` gave a log2 enrichment of -1.25.
For `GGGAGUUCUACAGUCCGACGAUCGCAAAAAGUAAAAACAAAUGGAAAUGCUUCGGAUAGUGGCAGGGGUGGGGGUUGCUAAGGAAAGGGUGGGAUGGGAGUGGGUAAAGAGUUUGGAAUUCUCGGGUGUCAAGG`, the log2 enrichment was 1.3.
`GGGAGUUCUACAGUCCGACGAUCCUCAAGUCCUGUGCUACACAUCGUAUGUACCGAAUCGGGGAAGGGAAGGGAAGGAAAGUAUUAUGUUACGCCGUUCGGAUCUGCACUUCCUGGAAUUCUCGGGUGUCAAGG` gave a log2 enrichment of -0.813.
The log2 enrichment of `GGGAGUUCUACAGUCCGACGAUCAAGUCCUGUGCUACACAUCGUAUGUACCGAAUCGGGCCCGGGGCCCGGGCCCGGGGAAAGUAUUAUGUUACGCCGUUCGGAUCUGCACUUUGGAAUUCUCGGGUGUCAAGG` is reported as -3.48.
The log2 enrichment of `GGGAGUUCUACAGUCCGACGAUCUCCUGUGCUACACAUCGUAUGUACCGAAUCGGGGCCCCCGGGCCCCCGGGCCCCCGGGGAAAGUAUUAUGUUACGCCGUUCGGAUCUGCAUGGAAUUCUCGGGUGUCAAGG` is reported as -2.52.
`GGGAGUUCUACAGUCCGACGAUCGCAGGAAGUAAAAACAAAUGGAAAUGCUUCGGAUAGUGGCAGGGGUGGGGGUUGCUAAGGAAAGGGUGGGAUGGGAGGGGGUAAAGAGUUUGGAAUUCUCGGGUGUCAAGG` gave a log2 enrichment of 0.37.

Set 3
Target: Interferon regulatory factor 5, full length, phosphomimetic (IRF5, Homo sapiens, UniProt Q13568-2, residues 1-514, K96S/S451D/S453D/S456D/S462D)
Technique: protein-binding microarray
Form: double-stranded DNA, one strand shown
Sample: in vitro
Tested at: 250 nM
Setting: 60-bp whole probe
With: salmon DNA 0.4 mg/ml
Baseline: random background probes
Reading: higher = stronger binding
Constant ends, left off below: GCCTAGCAC … GTCTTGATTCGCTTGACGCTGCTG
`TCAGTTTTGCTAAGTCAAACTGTGCTA` gave a log fluorescence of 1.33 z-score.
`TTAGGTTTCTTTTTCCTTTAGTGCTAG` has a log fluorescence of 2.1 z-score.
`TTAGGTCTCCTAATCCTTTAGTGCTAG` gave a log fluorescence of -0.289 z-score.
With `GACGATATCGACTTTCGGGACGTGCTA` the log fluorescence was 6.91 z-score.
With `TAAAATTTTGCTTCTAGAACGTGCTAG` the log fluorescence was 0.544 z-score.
The log fluorescence of `TCAGAATTACCTCTGGAACTGTGCTAG` is reported as -0.512 z-score.
The log fluorescence of `GACGATATCGGTTTCGAGACGTGCTAG` is reported as 7.71 z-score.
The log fluorescence of `AACGGTCTCCTTCTCCTGACGTGCTAG` is reported as -0.112 z-score.
`GGTAGGCGGGGCCCCTGGCCGTGCTAG` has a log fluorescence of -1.06 z-score.
The log fluorescence of `TAAGGACTGCTTCTCCTTTAGTGCTAG` is reported as -0.102 z-score.
The log fluorescence of `TCAGAAATCTCAATGGGACTGTGCTAG` is reported as 0.015 z-score.
With `GACGATTTCAGTTCCGAAACGTGCTAG` the log fluorescence was 2.42 z-score.
With `TCAATTATAACACTCTTACTGTGCTAG` the log fluorescence was 0.464 z-score.
For `TTAGAACTGAGACTGGATCAGTGCTAG`, the log fluorescence was -0.275 z-score.
The log fluorescence of `TCTTATATACCTGTATATCTGTGCTAG` is reported as 0.85 z-score.
For `TCATGAACCATTTTGGTACTGTGCTAG`, the log fluorescence was 0.287 z-score.
`GACGGTCTCCTTCGCCTGACGTGCTAG` has a log fluorescence of -0.0647 z-score.
`GCCGGTTTCGGGACTGGGGACGTGCTA` gave a log fluorescence of 5.42 z-score.
The log fluorescence of `ACTGAAATCACCCTTGGAAGTGTGCTA` is reported as 0.808 z-score.
For `TTAGGTATCAGTATCGGTTAGTGCTAG`, the log fluorescence was 8.23 z-score.
With `TTAGGTATCGGTTTCTGTTAGTGCTAG` the log fluorescence was 9.05 z-score.
With `GACGAATTCGGGTATCGAGACGTGCTA` the log fluorescence was 1.02 z-score.
The log fluorescence of `TTAGGTATCCGTATCGGTTAGTGCTAG` is reported as 5.35 z-score.
`TTAGGTCTCCTTATCCTGTAGTGCTAG` has a log fluorescence of -0.285 z-score.
For `CTGTGGGAGGCCCGCGGGAGGTGCTAG`, the log fluorescence was -0.969 z-score.

Set 4
Sequence: FDPPLESKYECPICLMALREAVQTPCGHRFCKACIIKSIRDAGHKCPVDNEILLENQLFP (TRAF6 RING domain (UniProt Q9Y4K3))
Technique: yeast two-hybrid
Sample: yeast
Setting: mostly zero background
Baseline: not given
Reading: higher = stronger interaction
The “lacZ reporter activity” was 0 (UBE2R2 UBC core domain (UniProt Q712K3)).
For UBE2T UBC core domain (UniProt Q9NPD8): “lacZ reporter activity” read 0.
For UBE2Z UBC core domain (UniProt Q9H832): “lacZ reporter activity” read 0.
UBE2Q1 UBC core domain (UniProt Q7Z7E8) — “lacZ reporter activity”: 0.
It gave 0 for “lacZ reporter activity” (UBE2C UBC core domain (UniProt O00762)).
The “lacZ reporter activity” was 0 (UBE2M UBC core domain (UniProt P61081)).
The “lacZ reporter activity” was 0 (UBE2J1 UBC core domain (UniProt Q9Y385)).
For UBE2L3 UBC core domain (UniProt P68036): “lacZ reporter activity” read 0.
The “lacZ reporter activity” was 0 (UBE2B UBC core domain (UniProt P63146)).

Repeated from above (set 3):
With `GACGAATTCGGGTATCGAGACGTGCTA` the log fluorescence was 1.02 z-score.
For `CTGTGGGAGGCCCGCGGGAGGTGCTAG`, the log fluorescence was -0.969 z-score.
`GACGGTCTCCTTCGCCTGACGTGCTAG` has a log fluorescence of -0.0647 z-score.
